Results collected from several papers.
± marks the error that the study gave.
SCN10A: Sodium channel protein type 10 subunit alpha (SCN10A, Homo sapiens, UniProt Q9Y5Y9)
UniProt Q9Y5Y9, sequence (whole entry, looked up): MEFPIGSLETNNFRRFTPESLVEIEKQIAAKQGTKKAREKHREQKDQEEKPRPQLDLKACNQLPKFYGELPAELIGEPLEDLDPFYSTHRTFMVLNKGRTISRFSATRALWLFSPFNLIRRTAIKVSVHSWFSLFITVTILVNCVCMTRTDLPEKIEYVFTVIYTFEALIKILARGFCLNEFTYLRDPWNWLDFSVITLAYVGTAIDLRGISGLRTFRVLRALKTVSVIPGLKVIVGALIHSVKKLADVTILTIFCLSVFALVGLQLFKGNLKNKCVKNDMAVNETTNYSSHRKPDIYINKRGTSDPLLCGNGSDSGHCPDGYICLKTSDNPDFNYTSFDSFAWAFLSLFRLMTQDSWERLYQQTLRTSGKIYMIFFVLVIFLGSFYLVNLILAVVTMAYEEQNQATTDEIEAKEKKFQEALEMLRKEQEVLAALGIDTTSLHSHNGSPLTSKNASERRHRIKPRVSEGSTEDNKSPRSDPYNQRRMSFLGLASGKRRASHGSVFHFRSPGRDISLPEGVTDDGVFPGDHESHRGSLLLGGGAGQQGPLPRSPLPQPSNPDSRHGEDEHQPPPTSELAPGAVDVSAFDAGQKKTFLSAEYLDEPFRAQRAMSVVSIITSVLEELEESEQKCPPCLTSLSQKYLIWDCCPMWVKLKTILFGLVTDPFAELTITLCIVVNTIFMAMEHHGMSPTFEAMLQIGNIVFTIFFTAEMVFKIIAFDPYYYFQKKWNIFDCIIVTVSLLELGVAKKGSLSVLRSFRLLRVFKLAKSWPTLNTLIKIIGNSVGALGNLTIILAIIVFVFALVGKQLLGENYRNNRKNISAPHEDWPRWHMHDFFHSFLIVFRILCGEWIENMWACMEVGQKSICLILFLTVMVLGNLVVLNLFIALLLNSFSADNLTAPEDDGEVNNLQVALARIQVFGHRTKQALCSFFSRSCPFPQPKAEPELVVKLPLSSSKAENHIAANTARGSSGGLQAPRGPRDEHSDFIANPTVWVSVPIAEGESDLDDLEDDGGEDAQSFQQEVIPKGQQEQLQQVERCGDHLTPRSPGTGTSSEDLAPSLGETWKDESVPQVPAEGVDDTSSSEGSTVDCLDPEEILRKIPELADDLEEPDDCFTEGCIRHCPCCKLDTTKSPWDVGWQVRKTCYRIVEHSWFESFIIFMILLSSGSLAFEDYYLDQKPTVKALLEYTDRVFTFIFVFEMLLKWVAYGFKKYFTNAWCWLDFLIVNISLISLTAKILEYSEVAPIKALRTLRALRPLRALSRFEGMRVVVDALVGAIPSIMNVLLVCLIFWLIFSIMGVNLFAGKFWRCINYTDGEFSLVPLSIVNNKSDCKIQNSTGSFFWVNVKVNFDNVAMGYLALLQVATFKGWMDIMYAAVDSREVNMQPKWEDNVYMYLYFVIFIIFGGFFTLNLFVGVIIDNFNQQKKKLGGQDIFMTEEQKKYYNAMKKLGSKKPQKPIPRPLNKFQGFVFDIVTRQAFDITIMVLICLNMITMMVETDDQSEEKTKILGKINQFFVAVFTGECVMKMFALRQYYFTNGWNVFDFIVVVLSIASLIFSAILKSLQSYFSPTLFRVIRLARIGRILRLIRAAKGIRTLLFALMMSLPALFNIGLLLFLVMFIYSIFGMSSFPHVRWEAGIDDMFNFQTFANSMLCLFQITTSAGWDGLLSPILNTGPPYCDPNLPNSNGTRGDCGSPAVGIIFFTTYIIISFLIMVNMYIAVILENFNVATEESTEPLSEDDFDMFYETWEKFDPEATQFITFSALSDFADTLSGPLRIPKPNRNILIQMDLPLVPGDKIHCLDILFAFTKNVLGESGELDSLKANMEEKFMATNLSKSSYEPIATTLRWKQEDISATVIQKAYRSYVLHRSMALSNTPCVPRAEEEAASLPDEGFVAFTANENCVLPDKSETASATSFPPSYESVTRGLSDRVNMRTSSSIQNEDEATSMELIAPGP
CHRM1: Muscarinic acetylcholine receptor M1 (CHRM1, Homo sapiens, UniProt P11229)
UniProt P11229, sequence (whole entry, looked up): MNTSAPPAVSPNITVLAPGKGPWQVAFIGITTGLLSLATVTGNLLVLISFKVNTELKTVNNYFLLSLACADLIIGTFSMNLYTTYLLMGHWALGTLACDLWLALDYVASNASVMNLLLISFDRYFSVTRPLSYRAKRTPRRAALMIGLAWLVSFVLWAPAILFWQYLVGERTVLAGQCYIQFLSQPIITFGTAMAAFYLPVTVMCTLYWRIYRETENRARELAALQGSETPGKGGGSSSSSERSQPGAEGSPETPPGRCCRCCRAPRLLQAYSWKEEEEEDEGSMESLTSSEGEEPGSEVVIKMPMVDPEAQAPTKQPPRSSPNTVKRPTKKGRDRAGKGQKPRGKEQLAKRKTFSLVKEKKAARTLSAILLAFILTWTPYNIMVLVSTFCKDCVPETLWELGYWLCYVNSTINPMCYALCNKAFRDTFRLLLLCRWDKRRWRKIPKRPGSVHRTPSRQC
Prkar2b S112A holoenzyme with catalytic subunit: cAMP-dependent protein kinase type II-beta regulatory subunit, holoenzyme with catalytic subunit (Prkar2b, Rattus norvegicus, UniProt P12369, S112A)
UniProt P12369, sequence (whole entry, unmodified, looked up): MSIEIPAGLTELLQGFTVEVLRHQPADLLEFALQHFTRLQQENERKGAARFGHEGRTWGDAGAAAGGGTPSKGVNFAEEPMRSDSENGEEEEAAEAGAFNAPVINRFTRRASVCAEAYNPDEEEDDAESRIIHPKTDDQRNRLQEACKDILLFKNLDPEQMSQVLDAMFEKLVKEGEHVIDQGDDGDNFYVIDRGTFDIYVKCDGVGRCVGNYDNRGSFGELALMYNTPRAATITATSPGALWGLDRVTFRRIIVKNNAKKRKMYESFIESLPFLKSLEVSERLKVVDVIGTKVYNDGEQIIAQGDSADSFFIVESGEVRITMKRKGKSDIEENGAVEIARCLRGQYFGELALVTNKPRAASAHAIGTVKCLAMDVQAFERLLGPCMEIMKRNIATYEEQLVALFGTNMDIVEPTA
T1: RNA G-quadruplex, G-quadruplex, K+ folded (Homo sapiens); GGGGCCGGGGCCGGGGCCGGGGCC
T2: c-di-GMP riboswitch (Clostridium acetobutylicum); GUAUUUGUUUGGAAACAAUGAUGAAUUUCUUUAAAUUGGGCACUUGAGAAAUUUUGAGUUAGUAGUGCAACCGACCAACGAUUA
UniProt Q92731, sequence (whole entry, looked up): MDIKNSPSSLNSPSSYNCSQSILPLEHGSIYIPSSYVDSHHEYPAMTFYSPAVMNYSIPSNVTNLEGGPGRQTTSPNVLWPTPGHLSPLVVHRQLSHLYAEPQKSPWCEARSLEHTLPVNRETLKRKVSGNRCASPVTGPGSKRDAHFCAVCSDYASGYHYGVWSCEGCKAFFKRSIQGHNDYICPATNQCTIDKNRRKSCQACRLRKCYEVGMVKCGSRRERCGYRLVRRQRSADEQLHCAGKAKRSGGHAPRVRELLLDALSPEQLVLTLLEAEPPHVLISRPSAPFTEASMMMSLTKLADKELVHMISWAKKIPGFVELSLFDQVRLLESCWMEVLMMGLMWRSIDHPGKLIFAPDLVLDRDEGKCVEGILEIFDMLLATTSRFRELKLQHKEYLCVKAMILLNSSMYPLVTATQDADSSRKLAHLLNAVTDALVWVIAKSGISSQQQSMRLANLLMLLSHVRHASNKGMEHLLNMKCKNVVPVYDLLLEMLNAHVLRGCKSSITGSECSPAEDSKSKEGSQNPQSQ
UniProt P08575, sequence (whole entry, looked up): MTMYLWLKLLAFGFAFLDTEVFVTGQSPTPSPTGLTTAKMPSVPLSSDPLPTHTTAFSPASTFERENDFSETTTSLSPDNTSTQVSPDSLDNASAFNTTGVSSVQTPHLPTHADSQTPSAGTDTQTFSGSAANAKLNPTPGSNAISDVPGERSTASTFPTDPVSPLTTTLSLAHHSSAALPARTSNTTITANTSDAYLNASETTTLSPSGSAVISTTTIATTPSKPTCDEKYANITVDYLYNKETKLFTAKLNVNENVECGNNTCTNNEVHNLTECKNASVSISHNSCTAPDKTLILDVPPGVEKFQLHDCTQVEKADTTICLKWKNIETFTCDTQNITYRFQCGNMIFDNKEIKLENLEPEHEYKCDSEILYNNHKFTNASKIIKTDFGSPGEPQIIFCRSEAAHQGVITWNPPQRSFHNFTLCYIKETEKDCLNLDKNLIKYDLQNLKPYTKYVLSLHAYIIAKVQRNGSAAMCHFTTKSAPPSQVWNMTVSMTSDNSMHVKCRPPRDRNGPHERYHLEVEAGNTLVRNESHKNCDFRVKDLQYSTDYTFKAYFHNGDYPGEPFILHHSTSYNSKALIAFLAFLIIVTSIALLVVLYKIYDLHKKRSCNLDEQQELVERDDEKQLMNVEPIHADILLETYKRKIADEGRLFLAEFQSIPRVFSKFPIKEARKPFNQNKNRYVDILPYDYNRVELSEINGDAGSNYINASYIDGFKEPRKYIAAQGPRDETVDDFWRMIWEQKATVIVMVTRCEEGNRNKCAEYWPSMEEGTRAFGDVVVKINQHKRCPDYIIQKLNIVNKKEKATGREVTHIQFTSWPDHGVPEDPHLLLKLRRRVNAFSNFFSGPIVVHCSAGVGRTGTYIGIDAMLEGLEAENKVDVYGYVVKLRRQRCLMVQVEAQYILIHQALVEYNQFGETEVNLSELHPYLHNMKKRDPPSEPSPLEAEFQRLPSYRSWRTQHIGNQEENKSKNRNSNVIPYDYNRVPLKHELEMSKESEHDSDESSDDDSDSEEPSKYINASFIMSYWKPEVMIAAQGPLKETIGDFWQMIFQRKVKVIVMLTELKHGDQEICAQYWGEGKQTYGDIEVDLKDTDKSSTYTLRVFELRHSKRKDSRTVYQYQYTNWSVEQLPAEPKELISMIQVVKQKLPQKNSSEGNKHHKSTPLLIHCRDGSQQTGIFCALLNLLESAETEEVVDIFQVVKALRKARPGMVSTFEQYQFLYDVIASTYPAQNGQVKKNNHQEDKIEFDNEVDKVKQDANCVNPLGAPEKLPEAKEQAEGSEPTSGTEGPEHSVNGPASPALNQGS
UniProt Q96RJ0, sequence (whole entry, looked up): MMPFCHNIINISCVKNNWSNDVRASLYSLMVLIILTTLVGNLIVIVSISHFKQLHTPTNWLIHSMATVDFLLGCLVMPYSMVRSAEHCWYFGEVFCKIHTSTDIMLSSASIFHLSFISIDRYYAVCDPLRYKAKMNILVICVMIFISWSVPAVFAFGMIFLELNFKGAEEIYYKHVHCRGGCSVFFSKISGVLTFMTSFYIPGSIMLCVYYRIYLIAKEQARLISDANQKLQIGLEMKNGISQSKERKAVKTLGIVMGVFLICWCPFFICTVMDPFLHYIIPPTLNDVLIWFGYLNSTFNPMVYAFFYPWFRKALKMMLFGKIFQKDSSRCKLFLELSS

[Na+].[Na+].[Na+].[O]=[V]([O-])([O-])[O-]
Km (ALPI (Bos taurus, UniProt P19111); 6.68 µM, together with: DiFMUP substrate): 1.3 ± 0.3 µM

COC(=O)c1scc(C)c1NC(=O)C(C)N1CCCCC1 (centres unmarked)
capacity factor k′ (SCN10A; cell membrane chromatography; higher = stronger binding): 37

O=C(O)Cc1ccccc1Nc1c(Cl)cccc1Cl
current change (unc-8 (Caenorhabditis elegans, UniProt Q21974, G387E); ion current, two-electrode voltage clamp; Xenopus oocytes coexpressing MEC-2; 30 µM, -85 mV; reference: uninjected oocytes, positive = inhibition): 0.24 µA

O=c1cc(-c2ccccc2OCc2ccc(-c3ncco3)cc2)ncn1C1CCCCC1O (centres unmarked)
change in baseline activity (CHRM1; allosteric agonist, IP1 accumulation; CHO-M1 cells; 1 µM, unit not given; reference: maximum ACh response): 5.5 ± 3.4

CCN(c1ccccc1)S(=O)(=O)C1CC2OC1C(c1ccc(O)cc1)=C2c1ccc(O)cc1 (centres unmarked)
efficacy (ESR2 (Homo sapiens, UniProt Q92731); reporter gene, antagonist; HepG2; together with: estradiol 10 nM; reference: E2 response, negative is inverse agonism): -10 ± 2%

O=C1C=CCCC1
kox (Uncharacterized protein PH0856 (Pyrococcus horikoshii, UniProt O58586); reduced FMN reoxidation, substrate, stopped-flow; pH 7.0, 37 °C, anoxic): 18 s⁻¹

NS(=O)(=O)c1ccc(N2N=C(C(F)(F)F)C[C@H]2c2ccc(F)cc2F)cc1
IC80 (Cyclooxygenase-2 (Canis lupus familiaris, UniProt Q8SPQ9); PGE2 formation, inhibitor; dog whole blood; 24 h, together with: LPS): 38300 nM

COC(=O)c1scc(C)c1NC(=O)C(C)N1CCN(CC2CC2)CC1 (centres unmarked)
capacity factor k′ (SCN10A; cell membrane chromatography; higher = stronger binding): 115

CC[C@H](C)[C@H](NC(=O)[C@H](CC(C)C)NC(=O)[C@@H](NC(=O)[C@@H]1CCCN1C(=O)[C@@H](NC(=O)[C@@H]1CCCN1C(=O)[C@@H](NC(=O)[C@H](CO)NC(=O)[C@H](Cc1c[nH]cn1)NC(=O)[C@@H]1CCCN1C(=O)[C@H](CCCNC(=N)N)NC(=O)[C@H](CCCCN)NC(=O)[C@H](CCCNC(=N)N)NC(=O)[C@H](CCCNC(=N)N)NC(=O)[C@H](CCCNC(=N)N)NC(=O)[C@@H]1CCCN1C(=O)[C@H](CCCNC(=N)N)NC(=O)[C@H](CC(C)C)NC(=O)[C@H](CC(C)C)NC(=O)[C@H](Cc1c[nH]cn1)NC(=O)[C@H](Cc1c[nH]cn1)NC(=O)CNC(=O)[C@@H](N)CSSC[C@H](N)C(=O)NCC(=O)N[C@@H](Cc1c[nH]cn1)C(=O)N[C@@H](Cc1c[nH]cn1)C(=O)N[C@@H](CC(C)C)C(=O)N[C@@H](CC(C)C)C(=O)N[C@@H](CCCNC(=N)N)C(=O)N1CCC[C@H]1C(=O)N[C@@H](CCCNC(=N)N)C(=O)N[C@@H](CCCNC(=N)N)C(=O)N[C@@H](CCCNC(=N)N)C(=O)N[C@@H](CCCCN)C(=O)N[C@@H](CCCNC(=N)N)C(=O)N1CCC[C@H]1C(=O)N[C@@H](Cc1c[nH]cn1)C(=O)N[C@@H](CO)C(=O)N[C@H](C(=O)N1CCC[C@H]1C(=O)N[C@H](C(=O)N1CCC[C@H]1C(=O)N[C@H](C(=O)N[C@@H](CC(C)C)C(=O)N[C@H](C(=O)N[C@@H](Cc1ccccc1)C(=O)N[C@@H](CCCNC(=N)N)C(=O)N[C@@H](CO)C(=O)N1CCC[C@H]1C(=O)O)[C@@H](C)CC)[C@@H](C)CC)[C@@H](C)O)[C@@H](C)CC)[C@@H](C)CC)[C@@H](C)O)[C@@H](C)CC)C(=O)N[C@@H](Cc1ccccc1)C(=O)N[C@@H](CCCNC(=N)N)C(=O)N[C@@H](CO)C(=O)N1CCC[C@H]1C(=O)O
binding to PBMC subsets (PTPRC (Homo sapiens, UniProt P08575); flow cytometry; healthy donor PBMC; concentration not given, together with: MDA-MB-231 cells; reference: before TNBC cell exposure): decreased

O=C(O[C@@H]1Cc2c(O)cc(O)cc2O[C@@H]1c1cc(O)c(=O)c2c(O)c(O)cc([C@H]3Oc4cc(O)cc(O)c4C[C@H]3O)c2c1)c1cc(O)c(O)c(O)c1
reduction of aggregates (Protein immune deficiency (imd, Drosophila melanogaster, UniProt Q7K4Z4); inhibitor, SDD-AGE densitometry; 100 µM, 30 min, room temperature): 58.4%

C[C@H](N)C(=O)N[C@@H](C)C(=O)N[C@@H](CCCCN)C(=O)N[C@@H](CCCCN)C(=O)N[C@@H](C)C(=O)N[C@@H](C)C(=O)N[C@@H](C)C(=O)N[C@@H](CCCCN)C(=O)N[C@@H](CCCCN)C(=O)N[C@@H](C)C(=O)N[C@@H](C)C(=O)N[C@@H](C)C(=O)N[C@@H](CCCCN)C(=O)N[C@@H](CCCCN)C(=O)N[C@@H](C)C(N)=O
concentration for full EtBr displacement (calf thymus DNA; DNA binding; ctDNA 100 µM, together with: ethidium bromide 4 µM): 150 µM

CIKVAVS
maximum inhibition (human polyclonal IgM rheumatoid factor; binding to mAb II-481; peptide; combined CDR peptides, serum WEAK): 0%

CS(=O)(=O)c1ccc(COc2ccccc2-c2cc(=O)n(C3CCCCC3O)cn2)cc1 (centres unmarked)
change in baseline activity (CHRM1; allosteric agonist, IP1 accumulation; CHO-M1 cells; 10 µM, unit not given; reference: maximum ACh response): 52.4 ± 2.9

c1ccc2[nH]c(-c3ccsc3)cc2c1
inhibition (RAW264.7; NO release, inhibitor, Griess; 50 µM, 20 h, LPS-stimulated): 66.3%

CC[C@H](C)[C@H](NC(=O)[C@H](CCC(=O)O)NC(=O)[C@@H](NC(=O)[C@H](Cc1ccccc1)NC(=O)[C@H](CO)NC(=O)[C@H](CC(=O)O)NC(=O)[C@H](CCC(=O)O)NC(=O)[C@H](CO)NC(=O)[C@H](CO)NC(=O)CNC(=O)[C@H](CO)NC(=O)[C@H](CO)NC(=O)[C@H](CC(N)=O)NC(=O)CCCCCNC(=S)Nc1ccc2c(c1)C(=O)OC21c2ccc(O)cc2Oc2cc(O)ccc21)C(C)C)C(=O)N[C@@H](CCCNC(=N)N)C(=O)N[C@@H](CCSC)C(=O)N[C@@H](C)C(=O)N[C@@H](CCC(=O)O)C(=O)O
koff (Microtubule-associated protein 1 light chain 3 beta (Homo sapiens, UniProt Q9GZQ8); binding, surface plasmon resonance; together with: OPTN 169-185 peptide): 0.0351 s⁻¹

N#Cc1c(C(F)(F)F)cc(-c2ccc(Cl)cc2)nc1SCC(=O)Nc1ncccn1
cAMP production change (TAAR1 (Homo sapiens, UniProt Q96RJ0); agonist; 10 µM): -12.6%

O=c1cc(-c2ccccc2OCc2ccc(-c3cn[nH]c3)cc2)ncn1C1CCCCC1O (centres unmarked)
ΔpEC50 of ACh (CHRM1; positive allosteric modulator, IP1 accumulation; CHO-M1 cells; 10 µM, 60 min, 37 °C, together with: ACh; reference: ACh alone, higher = stronger potentiation): 2.15 ± 0.6 log units

Nc1ncnc2c1nc(Sc1ccc(Cl)cc1)n2[C@@H]1O[C@@H]2COP(=O)(O)O[C@H]2[C@H]1O
selectivity ratio (Prkar2b S112A holoenzyme with catalytic subunit; PKA holoenzyme activation, activator, fluorescence anisotropy; reference: RIIβ over RIα, higher = RIIβ-selective): 0.2

NCCOc1cc(C(=O)Nc2cc(OCCN)c3ccccc3n2)nc(C(=O)Nc2cc(OCCN)c3ccccc3n2)c1
Kd (T1, RNA G-quadruplex, G-quadruplex, K+ folded (Homo sapiens); biolayer interferometry; pH 7.0, 30 °C, KCl 185 mM): 70 nM

Brc1ccc2[nH]c(-c3ccccc3)cc2c1
inhibition (RAW264.7; NO release, inhibitor, Griess; 50 µM, 20 h, LPS-stimulated): 42.4%

COc1ccc(Cn2cc(C(=O)O)c(=O)c3ccccc32)cc1
log α (cooperativity) (CHRM1; IP1 accumulation, positive allosteric modulator, operational allosteric model; human cells; pKB fixed to published value, together with: acetylcholine): 1.6 ± 0.09

Cc1ccc(S(=O)(=O)Nc2ccc(-n3nc(C(F)(F)F)cc3C(F)(F)F)cc2)cc1
peak current (TRPC3 (Homo sapiens, UniProt Q13507); TRPC3 receptor-operated current, inhibitor, patch clamp; HEK293 transiently expressing TRPC3; 3 µM, together with: carbachol maximal activation): -1.01 ± 0.57 pA/pF

O=C(O)[C@H]1O[C@@H](Oc2c(-c3ccc(O)cc3)oc3cc(O)ccc3c2=O)[C@H](O)[C@@H](O)[C@@H]1O
Ksi (UGT1A1 (Homo sapiens, UniProt P22309); glucuronidation, substrate, refers to: 3,7,4'-trihydroxyflavone glucuronide): 0.86 ± 0.25 µM

O=c1[nH]cnc2c1ncn2[C@@H]1O[C@@H]2COP(=O)(O)O[C@H]3[C@@H](O)[C@H](n4cnc5c(=O)[nH]cnc54)O[C@@H]3COP(=O)(O)O[C@H]2[C@H]1O
Kd (T2, c-di-GMP riboswitch (Clostridium acetobutylicum); competitor, competition gel-shift; 4-24 h, pH 6.8, 22 °C, together with: radiolabelled c-di-GMP): 4.1 nM

CC[C@H](C)[C@H](NC(=O)[C@H](CC(C)C)NC(=O)[C@H](CC(C)C)NC(=O)CNC(=O)[C@H](Cc1ccc(O)cc1)NC(=O)[C@H](CCCNC(=N)N)NC(=O)[C@H](CO)NC(C)=O)C(=O)N[C@@H](CCCCN)C(=O)N[C@@H](C)C(=O)N[C@@H](Cc1ccccc1)C(=O)N[C@@H](CO)C(=O)N[C@@H](CCSC)C(=O)N[C@H](C(=O)N[C@@H](C)C(=O)N[C@@H](C)C(=O)N[C@@H](CCC(=O)O)C(=O)N[C@H](C(=O)N[C@@H](C)C(=O)N[C@@H](CCCNC(=N)N)C(=O)N[C@@H](CCCNC(=N)N)C(=O)N[C@H](C(=O)N[C@@H](CCCNC(=N)N)C(=O)N[C@@H](CCC(=O)O)C(=O)N[C@@H](Cc1ccccc1)C(=O)N[C@@H](CCCNC(=N)N)C(N)=O)[C@@H](C)O)[C@@H](C)O)[C@@H](C)O
apparent ΔG2 (calmodulin 76-148 sites III and IV; calcium binding, Tyr fluorescence titration; 12 µM, pH 7.4, 22 °C, together with: 6 µM calmodulin): -15.54 ± 0.08 kcal/mol

Cc1cc(Nc2ncc(Cl)c(Nc3ccccc3S(=O)(=O)C(C)C)n2)c(OC(C)C)cc1C1CCN(CC(=O)NCCOCCOCCOCCOCCOCCNc2cccc3c2C(=O)N(C2CCC(=O)NC2=O)C3=O)CC1 (centres unmarked)
recovery onset time (NPM/ALK (Nucleophosmin/ALK tyrosine kinase receptor) (NPM1/ALK, Homo sapiens, UniProt P06748+Q9UM73); protein degradation, degrader, western blot; SU-DHL-1; 100 nM, 2 h, after washout): 8 h

Ac-GPSLNPFDEED-NH2 (N-acetyl, C-amide)
entropy change (mouse EHD1 EH domain; binding, ITC; peptide; concentration not given, pH 7.0, 20 °C, KCl 0 mM): -11.6 cal/mol/K

COC(=O)c1ccc(COc2ccccc2-c2cc(=O)n(C3CCCCC3O)cn2)cc1 (centres unmarked)
change in baseline activity (CHRM1; allosteric agonist, IP1 accumulation; CHO-M1 cells; 10 µM, unit not given; reference: maximum ACh response): 40.8

CCCC(=O)Nc1ncnc2c1ncn2[C@@H]1O[C@@H]2COP(=O)(O)O[C@H]2[C@H]1O
selectivity ratio (Prkar2b S112A holoenzyme with catalytic subunit; PKA holoenzyme activation, activator, fluorescence anisotropy; reference: RIIβ over RIα, higher = RIIβ-selective): 3.6

Repeated from above:
Cc1cc(Nc2ncc(Cl)c(Nc3ccccc3S(=O)(=O)C(C)C)n2)c(OC(C)C)cc1C1CCN(CC(=O)NCCOCCOCCOCCOCCOCCNc2cccc3c2C(=O)N(C2CCC(=O)NC2=O)C3=O)CC1 (centres unmarked)
recovery onset time (NPM/ALK (Nucleophosmin/ALK tyrosine kinase receptor) (NPM1/ALK, Homo sapiens, UniProt P06748+Q9UM73); protein degradation, degrader, western blot; SU-DHL-1; 100 nM, 2 h, after washout): 8 h

CS(=O)(=O)c1ccc(COc2ccccc2-c2cc(=O)n(C3CCCCC3O)cn2)cc1 (centres unmarked)
change in baseline activity (CHRM1; allosteric agonist, IP1 accumulation; CHO-M1 cells; 10 µM, unit not given; reference: maximum ACh response): 52.4 ± 2.9

CC[C@H](C)[C@H](NC(=O)[C@H](CC(C)C)NC(=O)[C@H](CC(C)C)NC(=O)CNC(=O)[C@H](Cc1ccc(O)cc1)NC(=O)[C@H](CCCNC(=N)N)NC(=O)[C@H](CO)NC(C)=O)C(=O)N[C@@H](CCCCN)C(=O)N[C@@H](C)C(=O)N[C@@H](Cc1ccccc1)C(=O)N[C@@H](CO)C(=O)N[C@@H](CCSC)C(=O)N[C@H](C(=O)N[C@@H](C)C(=O)N[C@@H](C)C(=O)N[C@@H](CCC(=O)O)C(=O)N[C@H](C(=O)N[C@@H](C)C(=O)N[C@@H](CCCNC(=N)N)C(=O)N[C@@H](CCCNC(=N)N)C(=O)N[C@H](C(=O)N[C@@H](CCCNC(=N)N)C(=O)N[C@@H](CCC(=O)O)C(=O)N[C@@H](Cc1ccccc1)C(=O)N[C@@H](CCCNC(=N)N)C(N)=O)[C@@H](C)O)[C@@H](C)O)[C@@H](C)O
apparent ΔG2 (calmodulin 76-148 sites III and IV; calcium binding, Tyr fluorescence titration; 12 µM, pH 7.4, 22 °C, together with: 6 µM calmodulin): -15.54 ± 0.08 kcal/mol
